Published values collected from several papers.
Protocols differ between the studies behind these lines. “And” joins repeats or separate records; there may be more than shown. ± gives the spread as reported. Converted amounts (≈) assume the structure as drawn.
Organism: Mycobacterium tuberculosis

| SMILES | test | system | setting | scale | measurement | result |
| --- | --- | --- | --- | --- | --- | --- |
| O=C(CN1C(=O)CSC1=O)Oc1ccc(/C=N/NC(=O)c2ccccn2)cc1Br | microbial growth, resazurin | H37RV |  |  | MIC | 4.19 µM |
| Cc1c(-c2ccc(Oc3ccc(OC(F)(F)F)cc3)nc2)[nH]c2ccccc2c1=O | microbial growth | H37RV |  |  | IC90 | 4.95 µM |
| CCC(CO)NCCNC(CC)CO.CCOc1cc(C=NNC(=S)Nc2cccc(Cl)c2)ccc1OC(=O)CN1C(=O)CSC1=O | two-drug checkerboard | H37Rv | concentration not given, unit not given | lower means more synergy | FICI | 2 |
| C#CCN(Cc1ccc2[nH]c(C)nc(=O)c2c1)c1ccc(C(=O)N[C@@H](CCC(=O)O)C(=O)O)cc1 | bacterial growth, inhibitor | H37Rv wild type |  |  | MIC90 | > 100 µM |
| Cc1nc2ccc(OC(F)(F)F)cn2c1C(=O)NCc1ccc2oc(-c3ccc(OC(F)(F)F)cc3)nc2c1 | microbial growth | H37RV |  |  | MIC90 | > 25 µM |
| CCC(CO)NCCNC(CC)CO.CCOc1cc(C=NNC(N)=S)ccc1OC(=O)CN1C(=O)CSC1=O | two-drug checkerboard | H37Rv | concentration not given, unit not given | lower means more synergy | FICI | 2 |
| CCc1nc2ccc(C(F)(F)F)cn2c1C(=O)NCc1ccc2oc(-c3ccc(OC(F)(F)F)cc3)nc2c1 | microbial growth | H37RV |  |  | MIC90 | > 25 µM |
| CN(C)c1ccc(-c2nc3ccccc3n2CCCOc2ccccc2)cc1 | microbial growth |  |  |  | MIC50 | > 10000 µM |
| CCC(CO)NCCNC(CC)CO.CCOc1cc(C=NNC(=O)c2ccccn2)ccc1OC(=O)CN1C(=O)CSC1=O | growth in combination | 192 | together with: reference drug at 1/2 MIC |  | MIC | 0.5 mg/L |
| Cc1c(-c2ccc(N3CCCCC3)cc2)[nH]c2cc(F)cc(F)c2c1=O | microbial growth | H37RV |  |  | IC90 | 0.85 µM |
| Cc1nc2cc(OC(F)(F)F)ccn2c1C(=O)NCc1ccc2oc(-c3ccc(Cl)cc3)nc2c1 | microbial growth | H37RV |  |  | MIC90 | > 10 µM |
| CCc1ccc(C2CC(C(F)(F)F)n3ncc(C(=O)NCc4cccs4)c3N2)cc1 (stereo not drawn) | bacterial growth, inhibitor | mmpL3-TetON |  |  | IC50 | 0.21 µM |
| CC(C)[C@H]1NC(=O)[C@H](Cc2ccccc2)NC(=O)[C@@H](C(C)C)NC(=O)[C@@H](C)NC(=O)[C@H](C)NC(=O)[C@@H](Cc2c(-c3ccc(-c4ccc5ccccc5c4)cc3)[nH]c3ccccc23)NC(=O)[C@@H](CO)NC1=O |  | H37Ra |  |  | MIC90 | > 10 µM |
| Cc1nc(=O)c2cc(CN(C)c3ccc(C(=O)NCc4ccccn4)s3)ccc2[nH]1 | bacterial growth, inhibitor | H37Rv wild type |  |  | MIC90 | > 100 µM |
| CCc1nc2ccc(Cl)cn2c1C(=O)NC/C=C(\C)CC/C=C(\C)CCC=C(C)C | optical density | H37Rv | 144 h |  | MIC | > 10 µM |
| NC(=O)c1cc(-c2cccnc2)ccc1OCCc1cccc(F)c1 |  | H37Rv-LP |  | reference: HepG2 CC50 over Mtb IC90 | selectivity index | 5 |
| CCOc1cc(C=NNC(=O)c2ccncc2)ccc1OC(=O)CN1C(=O)CSC1=O.NNC(=O)c1ccncc1 | two-drug checkerboard | H37Rv | concentration not given, unit not given | lower means more synergy | FICI | 0.724 |

| SMILES | test | system | setting | scale | measurement | result |
| --- | --- | --- | --- | --- | --- | --- |
| COc1ccc2ncc(F)c(C[C@H](O)[C@H]3OC[C@H](NCc4ccc5c(n4)NC(=O)CO5)CO3)c2c1 |  | H37Rv, mouse, IFN-gamma knockout | intraperitoneal, 100 mg/kg twice daily, 10 days | reference: untreated | lung bacterial burden reduction | 0.7 log10 |
| Cc1nc2cc(C(F)(F)F)ccn2c1C(=O)NCc1ccc2oc(-c3ccc(Cl)cc3)nc2c1 | microbial growth | H37RV |  |  | MIC90 | 0.156 µM (≈ 0.0756 µg/mL) |
| O=C(CCC1CCCCC1)Nc1cccc(-c2nnc(-c3ccco3)o2)c1 | bacterial growth, inhibitor | mmpL3-TetON |  |  | IC50 | 2.4 µM |
| CCc1nc2ccc(OC(F)(F)F)cn2c1C(=O)NCc1ccc2oc(-c3ccc(Cl)cc3)nc2c1 | microbial growth | H37RV |  |  | MIC90 | > 10 µM |
| COc1ccc(CCNC(=O)C2(n3cnnn3)CCCCC2)cc1 | bacterial growth, inhibitor | mmpL3-TetON |  |  | IC50 | 0.32 µM |
| Cc1nc2cc(C(F)(F)F)ccn2c1C(=O)NCc1ccc2oc(-c3ccc(OC(F)(F)F)cc3)nc2c1 | microbial growth | H37RV |  |  | MIC90 | > 25 µM |
| COc1ccc(-c2ccc(Nc3cccc(S(=O)(=O)CCNCCc4cccs4)c3)nc2)cn1 | bacterial growth, inhibitor | mmpL3-TetON |  |  | IC50 | 14.5 µM |
| CCC(CO)NCCNC(CC)CO.COc1cc(C=NNC(=O)c2ccncc2)ccc1OC(=O)CN1C(=O)CSC1=O | two-drug checkerboard | H37Rv | concentration not given, unit not given | lower means more synergy | FICI | 2 |
| COc1ccc2nc(C)cc(OCC(=O)Nc3ccccc3OC)c2c1 | microbial growth |  |  |  | IC50 | 3.85 µM |
| NC(=O)c1cc(C(F)F)ccc1OCCc1cccc(F)c1 | growth | H37Rv-LP | 120 h |  | IC90 | 12 ± 4.9 µM |
| CC(C)=CCC/C(C)=C/CNCCNC1C2CC3CC(C2)CC1C3 (stereo not drawn) | microbial growth |  |  |  | IC50 | 0.56 µM |
| Cc1cc(Oc2nc(N3CC[C@@H](c4ccncc4)C3)ncc2F)[nH]n1 | OD | H37Rv PurF CRISPRi knockdown | 4e-06 µM, together with: anhydrotetracycline low |  | normalised growth | 98% and 96% |
| NC(=O)c1cc(-c2ccoc2)ccc1OCCc1cccc(F)c1 |  | H37Rv-LP |  | reference: HepG2 CC50 over Mtb IC90 | selectivity index | 98 |
| Cc1cc(C)c2cc(C(=O)NC3CCCCCC3)[nH]c2c1 | microbial growth |  |  |  | IC50 | 0.21 µM |
| NC(=O)c1cc(C2=CCOC2)ccc1OCCc1cccc(F)c1 | growth | H37Rv-LP | 120 h |  | IC90 | 1.8 ± 1.1 µM |
| COc1ccc(CC(=O)Nc2c(-c3cccs3)nc3cc(C)ccn23)cc1 | bacterial growth, inhibitor | mmpL3-TetON |  |  | IC50 | 4.91 µM |

For quick reference, copied from above:
| SMILES | test | system | setting | scale | measurement | result |
| --- | --- | --- | --- | --- | --- | --- |
| NC(=O)c1cc(-c2cccnc2)ccc1OCCc1cccc(F)c1 |  | H37Rv-LP |  | reference: HepG2 CC50 over Mtb IC90 | selectivity index | 5 |
| CCOc1cc(C=NNC(=O)c2ccncc2)ccc1OC(=O)CN1C(=O)CSC1=O.NNC(=O)c1ccncc1 | two-drug checkerboard | H37Rv | concentration not given, unit not given | lower means more synergy | FICI | 0.724 |
